Measurements from different studies.
Protocols differ between the studies behind these lines. ± gives the spread as reported. Non-standard residues stand in square brackets, D forms with d. No end group written: not given here.

Substance | assay | test system | conditions | how to read | measurement | value
C[C@H](OC(C)(C)C)[C@H](NC(=O)OCC1c2ccccc2-c2ccccc21)C(=O)O | reversed-phase HPLC |  |  | reference: fluorinated over non-fluorinated analogue | retention time difference | 22.1 min
CCCCCCCCCCCCCCCCCC(=O)NCCCC[C@H](NC(=O)CCCCCCCCCCCCCCCCC)C(=O)N[C@@H](CCCCN)C(=O)N[C@@H](CCCCN)C(=O)N[C@@H](CCCCN)C(=O)N[C@@H](CCCCN)C(=O)N[C@@H](CCCCN)C(N)=O | RP-HPLC C18 |  |  |  | retention time | 27.8 min
C[C@H](NC(=O)[C@@H](N)CCCNC(=N)N)C(=O)N[C@@H](CCC(N)=O)C(=O)N[C@@H](Cc1c[nH]c2ccccc12)C(=O)N[C@@H](CCCNC(=N)N)C(=O)N[C@@H](Cc1c[nH]c2ccccc12)C(=O)N[C@@H](CCC(N)=O)C(=O)N[C@@H](Cc1c[nH]c2ccccc12)C(=O)N[C@@H](CCCNC(=N)N)C(N)=O | RP-HPLC C18 |  | hydrophobicity measure |  | retention time | 5.8 min
CC(=O)N[C@H](CCCCN)C(=O)N[C@H](CC(C)C)C(=O)N[C@@H](CN)C(=O)N[C@H](CO)C(=O)N[C@H](CC(C)C)C(=O)N[C@H](CC(C)C)C(=O)N[C@@H](CN)C(=O)N[C@@H](C(=O)N[C@H](CC(C)C)C(=O)N[C@H](CO)C(=O)N[C@@H](CN)C(=O)N[C@H](C)C(=O)N[C@H](CCCCN)C(=O)N[C@H](C)C(=O)N[C@H](C)C(=O)N[C@H](CCCCN)C(=O)N[C@H](CC(C)C)C(=O)N[C@@H](CN)C(=O)N[C@@H](C(=O)N[C@H](CC(C)C)C(=O)N[C@H](CC(C)C)C(=O)N[C@@H](CN)C(=O)N[C@H](C)C(=O)N[C@H](CC(C)C)C(=O)N[C@H](CO)C(=O)N[C@@H](CN)C(N)=O)[C@H](C)O)[C@H](C)O | RP-HPLC C8 |  | pH 2, 25 °C, hydrophobicity measure |  | retention time | 128 min
CCCC[C@H](NC(=O)OCC1c2ccccc2-c2ccccc21)C(=O)O | reversed-phase HPLC |  |  | reference: fluorinated over non-fluorinated analogue | retention time difference | 13.8 min
C[C@H](NC(=O)[C@H](Cc1c[nH]c2ccccc12)NC(=O)[C@H](CCC(N)=O)NC(=O)[C@H](Cc1c[nH]c2ccccc12)NC(=O)[C@H](CCCNC(=N)N)NC(=O)[C@H](Cc1c[nH]c2ccccc12)NC(=O)[C@H](CCC(N)=O)NC(=O)[C@H](Cc1c[nH]c2ccccc12)NC(=O)[C@@H](N)CCCNC(=N)N)C(N)=O | RP-HPLC C18 |  | hydrophobicity measure |  | retention time | 6.7 min
CC(C)(C)O[C@H]([C@H](NC(=O)OCC1c2ccccc2-c2ccccc21)C(=O)O)C(F)(F)F | reversed-phase HPLC |  |  | reference: fluorinated over non-fluorinated analogue | retention time difference | 22.1 min
CC[C@H](C)C(=O)O[C@H]1C[C@H](O)C=C2C=C[C@H](C)[C@H](CC[C@@H](O)C[C@@H](O)CC(=O)O)[C@H]21 |  | perfused human placental lobule | 50 ng/mL, 4 h, fetal-to-maternal | reference: initial donor concentration | retention by placental lobule | 20 ± 4%
CC(=O)N[C@@H](Cc1c[nH]c2ccccc12)C(=O)N[C@@H](CCCCN)C(=O)N[C@@H](Cc1c[nH]c2ccccc12)C(=O)N[C@@H](CCC(=O)O)C(=O)N[C@@H](Cc1c[nH]c2ccccc12)C(=O)N[C@@H](CCCCN)C(=O)N[C@@H](Cc1c[nH]c2ccccc12)C(=O)N[C@@H](CCC(=O)O)C(N)=O | reverse-phase HPLC C18 |  |  |  | retention time | 12.8 min
CC[C@H](C)[C@H](NC(=O)[C@H](Cc1ccc(O)cc1)NC(=O)[C@@H](N)CC(C)C)C(=O)N[C@@H](CCC(N)=O)C(=O)N[C@@H](Cc1c[nH]c2ccccc12)C(=O)N[C@@H](CC(C)C)C(=O)O | analytical RP-HPLC | C18 column |  |  | retention time | 18 to 19 min
N=C(N)NCCC[C@H](NC(=O)[C@H](Cc1c[nH]c2ccccc12)NC(=O)[C@H](CCC(N)=O)NC(=O)[C@H](Cc1c[nH]c2ccccc12)NC(=O)[C@H](CCCNC(=N)N)NC(=O)[C@@H](N)CCCNC(=N)N)C(N)=O | RP-HPLC, C18 column |  |  | higher is more hydrophobic | retention time | 4 min
Trp-[Phe(4-F)] (Trp-4-fluoro-Phe; Phe(4-F) = N[C@@H](Cc1ccc(F)cc1)C(=O)O) | RP-HPLC C18 |  |  | reference: non-fluorinated analogue | retention time shift | 6.13 min
CC(C)C[C@H](NC(=O)[C@H](CC(C)C)NC(=O)[C@@H](N)CCCNC(=N)N)C(=O)N[C@@H](CCCNC(=N)N)C(N)=O | RP-HPLC, C18 column |  |  | higher is more hydrophobic | retention time | 2.9 min
Trp-Phe | RP-HPLC C18 |  | 25 °C | reference: non-fluorinated analogue | retention time shift per fluorine | 6.13 min
CC(=O)N[C@@H](Cc1ccccc1)C(=O)N[C@@H](CCCCN)C(=O)N[C@@H](Cc1ccccc1)C(=O)N[C@@H](CCC(=O)O)C(=O)N[C@@H](Cc1ccccc1)C(=O)N[C@@H](CCCCN)C(=O)N[C@@H](Cc1ccccc1)C(=O)N[C@@H](CCC(=O)O)C(N)=O | reverse-phase HPLC C18 |  |  |  | retention time | 12.5 min
N=C(N)NCCC[C@H](NC(=O)[C@H](Cc1c[nH]c2ccccc12)NC(=O)[C@H](CCC(N)=O)NC(=O)[C@H](Cc1c[nH]c2ccccc12)NC(=O)[C@H](CCCNC(=N)N)NC(=O)[C@H](Cc1c[nH]c2ccccc12)NC(=O)[C@H](CCC(N)=O)NC(=O)[C@H](Cc1c[nH]c2ccccc12)NC(=O)[C@H](CCCNC(=N)N)NC(=O)CCCCCN)C(N)=O | RP-HPLC, C18 column |  | water/acetonitrile gradient with TFA |  | retention time | 6.3 min

A few entries again:
Substance | assay | test system | conditions | how to read | measurement | value
CC[C@H](C)C(=O)O[C@H]1C[C@H](O)C=C2C=C[C@H](C)[C@H](CC[C@@H](O)C[C@@H](O)CC(=O)O)[C@H]21 |  | perfused human placental lobule | 50 ng/mL, 4 h, fetal-to-maternal | reference: initial donor concentration | retention by placental lobule | 20 ± 4%
C[C@H](OC(C)(C)C)[C@H](NC(=O)OCC1c2ccccc2-c2ccccc21)C(=O)O | reversed-phase HPLC |  |  | reference: fluorinated over non-fluorinated analogue | retention time difference | 22.1 min
